# Experimental data of several laboratories.
# Every numbered part comes from another study and shows a few of its results, in no order. Values joined by “and” are separate records of one study, mostly repeats; a detail may differ.
# Sequence of UniProt P29317 (whole entry, looked up): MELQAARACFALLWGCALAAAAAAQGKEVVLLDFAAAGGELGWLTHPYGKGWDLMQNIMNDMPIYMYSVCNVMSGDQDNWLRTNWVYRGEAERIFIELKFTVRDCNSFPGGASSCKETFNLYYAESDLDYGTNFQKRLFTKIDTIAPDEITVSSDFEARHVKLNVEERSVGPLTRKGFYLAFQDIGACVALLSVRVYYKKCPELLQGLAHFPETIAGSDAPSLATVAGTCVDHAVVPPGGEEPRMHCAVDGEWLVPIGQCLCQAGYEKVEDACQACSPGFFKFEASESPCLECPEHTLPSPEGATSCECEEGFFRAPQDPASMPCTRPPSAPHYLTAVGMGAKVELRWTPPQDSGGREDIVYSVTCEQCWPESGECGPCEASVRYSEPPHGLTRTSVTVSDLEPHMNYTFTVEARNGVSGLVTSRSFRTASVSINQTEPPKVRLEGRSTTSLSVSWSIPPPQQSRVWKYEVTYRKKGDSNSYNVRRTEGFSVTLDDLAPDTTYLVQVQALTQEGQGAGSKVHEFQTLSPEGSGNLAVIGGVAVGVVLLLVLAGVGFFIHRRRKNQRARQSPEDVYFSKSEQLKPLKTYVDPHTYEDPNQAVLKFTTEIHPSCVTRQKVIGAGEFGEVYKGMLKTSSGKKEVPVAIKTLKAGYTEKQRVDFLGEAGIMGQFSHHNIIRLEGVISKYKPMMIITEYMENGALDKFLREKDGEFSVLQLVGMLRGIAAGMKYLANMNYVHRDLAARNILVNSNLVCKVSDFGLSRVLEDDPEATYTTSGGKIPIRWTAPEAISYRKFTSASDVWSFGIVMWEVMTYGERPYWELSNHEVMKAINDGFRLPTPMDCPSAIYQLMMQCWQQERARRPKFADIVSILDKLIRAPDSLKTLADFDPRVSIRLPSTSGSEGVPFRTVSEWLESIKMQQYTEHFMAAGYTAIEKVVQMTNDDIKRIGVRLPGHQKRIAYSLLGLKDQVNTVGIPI
# Sequence of UniProt P25090 (whole entry, looked up): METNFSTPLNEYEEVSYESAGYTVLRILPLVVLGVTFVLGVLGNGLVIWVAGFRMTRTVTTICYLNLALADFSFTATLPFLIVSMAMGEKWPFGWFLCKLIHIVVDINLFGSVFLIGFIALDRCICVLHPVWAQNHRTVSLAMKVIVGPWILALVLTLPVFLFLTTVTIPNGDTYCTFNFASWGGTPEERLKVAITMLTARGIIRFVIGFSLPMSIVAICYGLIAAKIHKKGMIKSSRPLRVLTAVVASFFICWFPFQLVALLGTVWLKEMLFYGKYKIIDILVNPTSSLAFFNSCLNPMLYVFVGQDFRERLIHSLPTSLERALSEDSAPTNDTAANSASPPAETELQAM
# Sequence of UniProt Q9UPE1 (whole entry, looked up): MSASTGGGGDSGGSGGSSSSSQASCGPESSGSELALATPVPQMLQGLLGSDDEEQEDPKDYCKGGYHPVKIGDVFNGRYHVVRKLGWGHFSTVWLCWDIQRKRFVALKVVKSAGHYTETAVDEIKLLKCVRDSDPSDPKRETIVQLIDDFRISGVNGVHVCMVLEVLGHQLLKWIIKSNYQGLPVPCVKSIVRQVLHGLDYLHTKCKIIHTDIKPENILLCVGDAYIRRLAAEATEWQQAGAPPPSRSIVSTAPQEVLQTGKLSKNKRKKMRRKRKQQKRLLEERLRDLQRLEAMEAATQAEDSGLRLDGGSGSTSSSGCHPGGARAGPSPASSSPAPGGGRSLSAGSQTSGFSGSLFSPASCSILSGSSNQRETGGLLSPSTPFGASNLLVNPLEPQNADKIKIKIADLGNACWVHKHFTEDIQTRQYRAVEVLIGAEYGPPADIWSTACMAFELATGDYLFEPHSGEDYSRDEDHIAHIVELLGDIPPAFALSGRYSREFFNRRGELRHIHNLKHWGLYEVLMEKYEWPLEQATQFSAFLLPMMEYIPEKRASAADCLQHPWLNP
# Sequence of UniProt P08069 (whole entry, looked up): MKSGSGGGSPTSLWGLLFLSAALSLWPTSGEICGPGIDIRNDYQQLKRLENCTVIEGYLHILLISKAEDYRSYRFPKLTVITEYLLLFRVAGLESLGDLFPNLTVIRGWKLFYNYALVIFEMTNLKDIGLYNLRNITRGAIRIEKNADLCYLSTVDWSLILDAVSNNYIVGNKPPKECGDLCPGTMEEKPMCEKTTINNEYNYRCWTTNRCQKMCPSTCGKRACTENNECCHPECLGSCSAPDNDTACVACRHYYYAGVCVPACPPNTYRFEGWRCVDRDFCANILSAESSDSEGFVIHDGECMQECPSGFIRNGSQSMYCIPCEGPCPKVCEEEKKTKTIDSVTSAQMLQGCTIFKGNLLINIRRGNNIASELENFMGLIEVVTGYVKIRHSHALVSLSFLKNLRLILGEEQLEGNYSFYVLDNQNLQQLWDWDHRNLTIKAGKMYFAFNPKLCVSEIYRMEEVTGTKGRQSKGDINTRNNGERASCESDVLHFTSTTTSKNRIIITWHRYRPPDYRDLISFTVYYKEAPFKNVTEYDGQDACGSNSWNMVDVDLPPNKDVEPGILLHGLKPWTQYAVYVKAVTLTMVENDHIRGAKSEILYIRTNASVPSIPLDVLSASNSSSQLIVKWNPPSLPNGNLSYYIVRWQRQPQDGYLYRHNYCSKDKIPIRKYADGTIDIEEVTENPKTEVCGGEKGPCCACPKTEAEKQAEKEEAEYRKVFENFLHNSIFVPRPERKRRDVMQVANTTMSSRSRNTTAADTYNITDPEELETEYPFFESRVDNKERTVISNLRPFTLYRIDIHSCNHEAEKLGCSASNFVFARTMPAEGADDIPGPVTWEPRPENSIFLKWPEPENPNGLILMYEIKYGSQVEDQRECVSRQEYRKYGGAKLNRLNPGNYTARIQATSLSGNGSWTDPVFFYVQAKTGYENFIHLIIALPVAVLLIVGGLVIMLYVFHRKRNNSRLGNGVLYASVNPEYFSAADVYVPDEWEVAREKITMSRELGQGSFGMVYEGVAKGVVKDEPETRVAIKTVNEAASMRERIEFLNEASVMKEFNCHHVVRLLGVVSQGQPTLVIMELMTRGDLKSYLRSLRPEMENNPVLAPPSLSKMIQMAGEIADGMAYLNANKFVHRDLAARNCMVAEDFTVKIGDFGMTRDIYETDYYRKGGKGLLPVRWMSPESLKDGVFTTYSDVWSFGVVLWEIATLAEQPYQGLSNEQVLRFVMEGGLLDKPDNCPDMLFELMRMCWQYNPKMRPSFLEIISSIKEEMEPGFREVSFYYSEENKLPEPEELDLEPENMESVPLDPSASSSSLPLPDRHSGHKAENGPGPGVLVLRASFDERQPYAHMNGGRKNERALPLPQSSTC
# Sequence of UniProt P35414 (whole entry, looked up): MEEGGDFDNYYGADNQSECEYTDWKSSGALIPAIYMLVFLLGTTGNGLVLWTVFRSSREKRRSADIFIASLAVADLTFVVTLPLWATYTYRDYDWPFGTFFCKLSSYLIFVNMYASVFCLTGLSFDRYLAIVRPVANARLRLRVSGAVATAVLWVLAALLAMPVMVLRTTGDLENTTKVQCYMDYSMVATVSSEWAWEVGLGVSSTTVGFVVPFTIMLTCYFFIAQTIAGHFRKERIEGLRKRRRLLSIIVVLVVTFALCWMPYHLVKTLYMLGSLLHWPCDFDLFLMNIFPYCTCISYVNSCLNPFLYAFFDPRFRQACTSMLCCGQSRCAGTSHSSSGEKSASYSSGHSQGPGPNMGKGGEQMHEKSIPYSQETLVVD
# Sequence of UniProt P42680 (whole entry, looked up): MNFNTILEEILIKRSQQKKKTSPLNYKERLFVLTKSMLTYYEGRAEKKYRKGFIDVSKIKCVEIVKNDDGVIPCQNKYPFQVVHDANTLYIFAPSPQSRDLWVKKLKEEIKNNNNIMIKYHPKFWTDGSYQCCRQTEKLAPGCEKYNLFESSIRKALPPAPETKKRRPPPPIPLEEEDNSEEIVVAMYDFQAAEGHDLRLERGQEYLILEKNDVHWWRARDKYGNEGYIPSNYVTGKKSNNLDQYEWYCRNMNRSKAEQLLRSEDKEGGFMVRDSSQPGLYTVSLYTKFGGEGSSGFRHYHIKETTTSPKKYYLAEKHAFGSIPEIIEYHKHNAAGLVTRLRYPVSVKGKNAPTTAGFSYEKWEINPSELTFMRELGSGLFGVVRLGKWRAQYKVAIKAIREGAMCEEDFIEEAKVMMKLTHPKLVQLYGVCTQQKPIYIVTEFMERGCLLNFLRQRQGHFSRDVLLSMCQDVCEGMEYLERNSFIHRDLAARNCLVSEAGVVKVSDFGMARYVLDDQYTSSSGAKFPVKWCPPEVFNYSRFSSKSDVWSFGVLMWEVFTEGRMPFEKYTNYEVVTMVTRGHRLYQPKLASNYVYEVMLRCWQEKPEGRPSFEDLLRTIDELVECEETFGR
# Sequence of UniProt Q9UJ42 (whole entry, looked up): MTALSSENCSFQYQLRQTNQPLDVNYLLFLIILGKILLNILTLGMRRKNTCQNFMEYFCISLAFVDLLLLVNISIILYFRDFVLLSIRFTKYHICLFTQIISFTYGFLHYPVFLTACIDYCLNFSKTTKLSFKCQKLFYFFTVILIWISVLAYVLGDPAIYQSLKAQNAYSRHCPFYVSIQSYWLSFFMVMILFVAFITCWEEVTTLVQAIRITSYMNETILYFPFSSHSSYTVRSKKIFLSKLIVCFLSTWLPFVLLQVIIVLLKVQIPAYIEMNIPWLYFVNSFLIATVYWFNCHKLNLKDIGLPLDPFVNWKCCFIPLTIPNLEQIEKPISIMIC
# Sequence of UniProt P68400 (whole entry, looked up): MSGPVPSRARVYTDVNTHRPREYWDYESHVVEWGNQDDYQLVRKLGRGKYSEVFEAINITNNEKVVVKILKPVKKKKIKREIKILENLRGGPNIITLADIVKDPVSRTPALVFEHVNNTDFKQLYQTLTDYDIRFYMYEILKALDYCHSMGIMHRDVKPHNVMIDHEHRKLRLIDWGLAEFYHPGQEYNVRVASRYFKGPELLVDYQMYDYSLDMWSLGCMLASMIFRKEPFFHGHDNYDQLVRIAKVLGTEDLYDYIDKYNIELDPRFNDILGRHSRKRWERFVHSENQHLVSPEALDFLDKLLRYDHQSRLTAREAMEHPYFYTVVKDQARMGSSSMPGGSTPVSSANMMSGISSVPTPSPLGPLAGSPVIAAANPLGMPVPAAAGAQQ

# Sample 1
# Structure (SMILES): NC(N)=NC(=O)c1nc(Cl)c(N2CCCCCC2)nc1N
# Read-out: β-arrestin recruitment
# Mode: agonist
# Method: PRESTO-Tango
# Concentration: 10 µM
# Baseline: untreated
target,fold over basal
"Adhesion G protein-coupled receptor F5 (ADGRF5, Homo sapiens, UniProt Q8IZF2)",1.15
"Probable G-protein coupled receptor 162 (GPR162, Homo sapiens, UniProt Q16538)",0.74
"N-formyl peptide receptor 2 (FPR2, Homo sapiens, UniProt P25090)",1.13 fold
"N-formyl peptide receptor 3 (Homo sapiens, UniProt P25089)",0.47 fold
"Apelin receptor (APLNR, Homo sapiens, UniProt P35414)",1.11
"Probable G-protein coupled receptor 160 (GPR160, Homo sapiens, UniProt Q9UJ42)",0.85

# Sample 2
# Cell line: A-375
# Concentration: 100 µM
# Time: 36 h
SMILES,viability
CCOc1nc2cccc(C(=O)OCc3oc(=O)oc3C)c2n1Cc1ccc(-c2ccccc2-c2noc(=O)[nH]2)cc1,102%
CC(C)c1nc(N(C)S(C)(=O)=O)nc(-c2ccc(F)cc2)c1/C=C/[C@@H](O)C[C@@H](O)CC(=O)O,57.6% and 96.7%
CCCCCCNC(=O)n1cc(F)c(=O)[nH]c1=O,54.6%
C=CC(=O)N1CCC[C@@H](n2nc(-c3ccc(Oc4ccccc4)cc3)c3c(N)ncnc32)C1,-0.0115%
CC=Cc1ccc(OC)cc1,86.9%
CC#CCn1c(N2CCC[C@@H](N)C2)nc2c1c(=O)n(Cc1nc(C)c3ccccc3n1)c(=O)n2C,21.6%
Cc1ncc(C[n+]2csc(CCO)c2C)c(N)n1,89.5%
CCCNC(C)C(=O)Nc1c(C)csc1C(=O)OC (centres unmarked),108%
CNC[C@H](O)c1cccc(O)c1,125%
CC1Cc2ccccc2N1NC(=O)c1ccc(Cl)c(S(N)(=O)=O)c1 (centres unmarked),93.6%

# Sample 3
# Compound: O=C(O)/C=C/c1cc(Br)c(Br)c(Br)c1Br
# Read-out: enzyme activity
# Mode: inhibitor
# Concentration: 0.5 µM
# Baseline: control
target,remaining activity
"Mitogen-activated protein kinase kinase kinase 20 (MAP3K20, Homo sapiens, UniProt Q9NYL2)",89.4%
"Calcium/calmodulin-dependent protein kinase type 1 (CAMK1, Homo sapiens, UniProt Q14012)",105%
"Protein kinase C zeta type (PRKCZ, Homo sapiens, UniProt Q05513)",89.2%
"Ribosomal protein S6 kinase alpha-3 (RPS6KA3, Homo sapiens, UniProt P51812)",41.2%
"Serine/threonine-protein kinase Sgk2 (SGK2, Homo sapiens, UniProt Q9HBY8)",59.7%
"Serine/threonine-protein kinase PAK 6 (PAK6, Homo sapiens, UniProt Q9NQU5)",110%
"Vascular endothelial growth factor receptor 1 (FLT1, Homo sapiens, UniProt P17948)",87.5%
"Casein kinase I isoform delta (CSNK1D, Homo sapiens, UniProt P48730)",59.1%
"Ephrin type-A receptor 2 (EPHA2, Homo sapiens, UniProt P29317)",97.9%
"Protein kinase C theta type (PRKCQ, Homo sapiens, UniProt Q04759)",89.6%
"SRSF protein kinase 1 (SRPK1, Homo sapiens, UniProt Q96SB4)",79.3%
"Tyrosine-protein kinase receptor TYRO3 (TYRO3, Homo sapiens, UniProt Q06418)",93.3%
"Casein kinase I isoform epsilon (CSNK1E, Homo sapiens, UniProt P49674)",83.6%
"Tyrosine-protein kinase Tec (TEC, Homo sapiens, UniProt P42680)",107%
"Dual specificity protein kinase CLK1 (CLK1, Homo sapiens, UniProt P49759)",98.5%
"Cyclin-dependent kinase 2, with cyclin E (CDK2, Homo sapiens, UniProt P24941)",89.4%
"Insulin-like growth factor 1 receptor (IGF1R, Homo sapiens, UniProt P08069)",96%
"Dual specificity protein kinase CLK2 (CLK2, Homo sapiens, UniProt P49760)",85%
"Calcium/calmodulin-dependent protein kinase kinase 1 (CAMKK1, Homo sapiens, UniProt Q8N5S9)",105%
"Tyrosine-protein kinase JAK1 (JAK1, Homo sapiens, UniProt P23458)",98.8%

# Sample 4
# SMILES: CN(C)c1ncnc(-c2ccc3nc(Nc4cc(CN5CCN(C(=O)CC(F)(F)F)CC5)ccn4)[nH]c3c2)c1Cl
# Read-out: cell-free assay
# Method: competition with immobilised ligand
# Concentration: 1 µM
target,remaining binding
"Serine/threonine-protein kinase B-raf (BRAF, Homo sapiens, UniProt P15056, V600E)",84%
"Mitogen-activated protein kinase kinase kinase kinase 1 (MAP4K1, Homo sapiens, UniProt Q92918)",91%
"Death-associated protein kinase 2 (DAPK2, Homo sapiens, UniProt Q9UIK4)",100%
"Cyclin-dependent kinase 9 (CDK9, Homo sapiens, UniProt P50750)",100%
"Receptor-type tyrosine-protein kinase FLT3 (FLT3, Homo sapiens, UniProt P36888, R834Q)",77%
"Casein kinase I isoform gamma-2 (CSNK1G2, Homo sapiens, UniProt P78368)",100%
"Activin receptor type-2B (ACVR2B, Homo sapiens, UniProt Q13705)",100%
"Receptor-type tyrosine-protein kinase FLT3 (FLT3, Homo sapiens, UniProt P36888, N841I)",53%
"Casein kinase II subunit alpha (CSNK2A1, Homo sapiens, UniProt P68400)",80%
"SRSF protein kinase 3 (SRPK3, Homo sapiens, UniProt Q9UPE1)",100%
"Ephrin type-A receptor 2 (EPHA2, Homo sapiens, UniProt P29317)",100%
"Megakaryocyte-associated tyrosine-protein kinase (MATK, Homo sapiens, UniProt P42679)",69%
"Serine/threonine-protein kinase 35 (STK35, Homo sapiens, UniProt Q8TDR2)",83%
"cAMP-dependent protein kinase catalytic subunit beta (PRKACB, Homo sapiens, UniProt P22694)",76%
"Mitotic checkpoint serine/threonine-protein kinase BUB1 (BUB1, Homo sapiens, UniProt O43683)",94%
"Beta-adrenergic receptor kinase 1 (GRK2, Homo sapiens, UniProt P25098)",57%
"Cyclin-dependent kinase 11B (CDK11B, Homo sapiens, UniProt P21127)",100%

# For quick reference, copied from above (sample 1):
target,fold over basal
"Adhesion G protein-coupled receptor F5 (ADGRF5, Homo sapiens, UniProt Q8IZF2)",1.15
"Probable G-protein coupled receptor 162 (GPR162, Homo sapiens, UniProt Q16538)",0.74
"N-formyl peptide receptor 2 (FPR2, Homo sapiens, UniProt P25090)",1.13 fold
"N-formyl peptide receptor 3 (Homo sapiens, UniProt P25089)",0.47 fold
"Apelin receptor (APLNR, Homo sapiens, UniProt P35414)",1.11
"Probable G-protein coupled receptor 160 (GPR160, Homo sapiens, UniProt Q9UJ42)",0.85
